Measured values gathered from unrelated publications.

Compound	organism	test	system	conditions	MIC
CC1(C)SC2C(NC(=O)C(NC(=O)C3=C(O)C(Cc4ccco4)NC3=O)c3ccccc3)C(=O)N2C1C(=O)O (centres unmarked)	Escherichia coli	broth microdilution	isolate IU 356 A, KPC-3, VIM-1, TEM	no clavulanic acid	> 200 µg/mL
CC(C)[C@H](NC(=O)[C@H](CCCNC(=N)N)NC(=O)[C@H](Cc1c[nH]c2ccccc12)NC(=O)[C@H](CCCNC(=N)N)NC(=O)[C@H](Cc1c[nH]c2ccccc12)NC(=O)[C@H](Cc1c[nH]c2ccccc12)NC(=O)[C@H](Cc1c[nH]c2ccccc12)NC(=O)[C@H](CCCNC(=N)N)NC(=O)[C@H](Cc1c[nH]c2ccccc12)NC(=O)[C@@H](N)CCCNC(=N)N)C(N)=O	Candida albicans	broth microdilution	SP3902, RPMI 1640-MOPS	48 h, 30 °C	16 µM
Cc1c2ccncc2c(C)c2c1[nH]c1ccccc12	Candidozyma auris	inhibitor	277	24 h	128 µg/mL
CC1(C)SC2C(NC(=O)C(NC(=O)C3=C(O)C4CCCN4C3=O)c3ccccc3)C(=O)N2C1C(=O)O (centres unmarked)	Escherichia coli	broth microdilution	isolate IU, CTX-M-14, TEM-1	no clavulanic acid	> 200 µg/mL
O=C(CO/N=c1\cc2n(-c3ccc(Cl)cc3)c3ccccc3nc-2cc1Nc1ccc(Cl)cc1)NCc1ccc(C(F)(F)F)cc1	Neisseria gonorrhoeae	bacterial growth	700825, streptomycin-resistant	24 h	> 30 µM
CC(C)C[C@@H](NC(=O)[C@H](C)NC(=O)CNC(=O)[C@@H](NC=O)C(C)C)C(=O)N[C@@H](C)C(=O)N[C@@H](C(=O)N[C@H](C(=O)N[C@@H](C(=O)N[C@@H](Cc1c[nH]c2ccccc12)C(=O)N[C@H](CC(C)C)C(=O)N[C@@H](Cc1cccc2cc[nH]c12)C(=O)N[C@H](CC(C)C)C(=O)N[C@@H](Cc1c[nH]c2ccccc12)C(=O)N[C@H](CC(C)C)C(=O)N[C@@H](Cc1c[nH]c2ccccc12)C(=O)NCCO)C(C)C)C(C)C)C(C)C	Streptococcus agalactiae	broth microdilution	JCM 5671	–	17 µM
N=C(N)NCCC[C@H](NC(=O)[C@H](Cc1c[nH]c2ccccc12)NC(=O)[C@H](CCCNC(=N)N)NC(=O)[C@H](Cc1c[nH]c2ccccc12)NC(=O)[C@H](Cc1c[nH]c2ccccc12)NC(=O)[C@H](Cc1c[nH]c2ccccc12)NC(=O)[C@H](CCCNC(=N)N)NC(=O)[C@H](Cc1c[nH]c2ccccc12)NC(=O)[C@H](CCCNC(=N)N)NC(=O)CN)C(N)=O	Candida tropicalis	broth microdilution	CGMCC 2.192, RPMI 1640-MOPS	48 h, 30 °C	2 µM
CC(C)C1NC(=O)C(C(=O)NC(C(=O)NC2C(=O)N3C2SC(C)(C)C3C(=O)O)c2ccccc2)=C1O (centres unmarked)	Escherichia coli	broth microdilution	Keio mutant JW2142-1	–	25 µg/mL
C[C@H](NC(=O)[C@H](CCCNC(=N)N)NC(=O)[C@H](Cc1c[nH]c2ccccc12)NC(=O)[C@H](CCCNC(=N)N)NC(=O)[C@H](Cc1c[nH]c2ccccc12)NC(=O)[C@H](Cc1c[nH]c2ccccc12)NC(=O)[C@H](Cc1c[nH]c2ccccc12)NC(=O)[C@H](CCCNC(=N)N)NC(=O)[C@H](Cc1c[nH]c2ccccc12)NC(=O)[C@@H](N)CCCNC(=N)N)C(N)=O	Candida albicans	broth microdilution	56467, RPMI 1640-MOPS	48 h, 30 °C	8 µM
CCCCCCCCCC(=O)N[C@@H](Cc1c[nH]c2ccccc12)C(=O)N[C@H](CC(N)=O)C(=O)N[C@@H](CC(=O)O)C(=O)N[C@@H]1C(=O)NCC(=O)N[C@@H](CCCN)C(=O)N[C@@H](CC(=O)O)C(=O)N[C@H](C)C(=O)N[C@@H](CC(=O)O)C(=O)NCC(=O)N[C@H](CO)C(=O)N[C@@H]([C@H](C)CC(=O)O)C(=O)N[C@@H](CC(=O)c2ccccc2N)C(=O)O[C@@H]1C	Micrococcus luteus	broth microdilution	ATCC 7468	24 h	15.4 µM
CC(C)[C@H](NC(=O)[C@H](CCCNC(=N)N)NC(=O)[C@H](Cc1c[nH]c2ccccc12)NC(=O)[C@H](CCCNC(=N)N)NC(=O)[C@H](Cc1c[nH]c2ccccc12)NC(=O)[C@H](Cc1c[nH]c2ccccc12)NC(=O)[C@H](Cc1c[nH]c2ccccc12)NC(=O)[C@H](CCCNC(=N)N)NC(=O)[C@H](Cc1c[nH]c2ccccc12)NC(=O)[C@H](CCCNC(=N)N)NC(=O)CN)C(N)=O	Candida albicans	broth microdilution	CGMCC 2.209, RPMI 1640-MOPS	48 h, 30 °C, together with: FeCl3 4 µM	32 µM
CC1(C)SC2C(NC(=O)C(NC(=O)C3=C(O)C(Cc4ccc(F)cc4)NC3=O)c3ccccc3)C(=O)N2C1C(=O)O (centres unmarked)	Escherichia coli	broth microdilution	Keio mutant JW2142-1	–	25 µg/mL
N=C(N)c1ccc(OCc2cccc(COc3ccc(C(=N)N)cc3)c2)cc1	Escherichia coli	–	mcr-1	20 h, in combination, checkerboard, together with: rifampicin	25 µg/mL
CC[C@H](C)[C@H](NC(=O)[C@H](CCCNC(=N)N)NC(=O)[C@H](Cc1c[nH]c2ccccc12)NC(=O)[C@H](CCCNC(=N)N)NC(=O)[C@H](Cc1c[nH]c2ccccc12)NC(=O)[C@H](Cc1c[nH]c2ccccc12)NC(=O)[C@H](Cc1c[nH]c2ccccc12)NC(=O)[C@H](CCCNC(=N)N)NC(=O)[C@H](Cc1c[nH]c2ccccc12)NC(=O)[C@@H](N)CCCNC(=N)N)C(N)=O	Candida albicans	broth microdilution	56467, RPMI 1640-MOPS	48 h, 30 °C	16 µM
CC[C@H](C)[C@H](NC(=O)[C@H](CCCCN)NC(=O)[C@H](CCCCN)NC(=O)[C@H](Cc1ccccc1)NC(=O)[C@@H](NC(=O)[C@@H](NC(=O)[C@H](CCCNC(=N)N)NC(=O)[C@H](Cc1ccccc1)NC(=O)[C@@H](NC(=O)[C@H](CCCCN)NC(=O)[C@H](CCCCN)NC(=O)[C@@H](N)CCSC)[C@@H](C)CC)C(C)C)[C@@H](C)CC)C(=O)N[C@@H](CC(C)C)C(=O)N[C@@H](CCCCN)C(=O)N[C@@H](CCCNC(=N)N)C(=O)N[C@@H](CC(C)C)C(=O)N[C@H](C(=O)N[C@H](C(=O)O)C(C)C)[C@@H](C)CC	Staphylococcus aureus	broth microdilution	ATCC 25923	compound pretreated with pepsin 1 h, together with: pepsin 1 mg/mL	16 µg/mL
N=C(N)NCCC[C@H](NC(=O)CCCCCNC(=O)[C@H](CCCNC(=N)N)NC(=O)[C@H](CCCNC(=N)N)NC(=O)CCCCCNC(=O)[C@H](CCCNC(=N)N)NC(=O)[C@H](CCCNC(=N)N)NC(=O)CCCCCNC(=O)[C@H](CCCNC(=N)N)NC(=O)[C@H](CCCNC(=N)N)NC(=O)CCCCCNC(=O)[C@@H](N)CCCNC(=N)N)C(=O)NCCCCCC(=O)NCCC(=O)O	Escherichia coli	–	ATCC 25922	1 h, 37 °C, serum, fetal bovine, after 12.5%	96 µM
CS(=O)(=O)Nc1ncn(-c2cc(F)c(COc3ccc(OS(=O)(=O)F)cc3)c(F)c2)n1	Mycolicibacterium fortuitum	–	–	–	25 µM
O=C(O)CNC(=O)CO/N=c1\cc2n(-c3ccc(Cl)cc3)c3ccccc3nc-2cc1Nc1ccc(Cl)cc1	Neisseria gonorrhoeae	bacterial growth	700825, streptomycin-resistant	24 h	7.5 µM
CC(C)CC1NC(=O)C(C(=O)NC(C(=O)NC2C(=O)N3C2SC(C)(C)C3C(=O)O)c2ccccc2)=C1O (centres unmarked)	Escherichia coli	broth microdilution	isolate IU 356 A, KPC-3, VIM-1, TEM	together with: clavulanic acid 6 µg/mL	> 200 µg/mL
CC(C)/N=c1\cc2n(-c3ccc(Cl)cc3)c3ccccc3nc-2cc1Nc1ccc(Cl)cc1	Neisseria gonorrhoeae	bacterial growth	1130991, multidrug-resistant	24 h	0.94 µM
N=C(N)NCCC[C@H](NC(=O)CN)C(=O)N[C@@H](Cc1c[nH]c2ccccc12)C(=O)N[C@@H](CCCNC(=N)N)C(=O)N[C@@H](Cc1c[nH]c2ccccc12)C(=O)N[C@@H](Cc1c[nH]c2ccccc12)C(=O)N[C@@H](Cc1c[nH]c2ccccc12)C(=O)N[C@@H](CCCNC(=N)N)C(=O)N[C@@H](Cc1c[nH]c2ccccc12)C(=O)N[C@@H](CCCNC(=N)N)C(=O)N[C@@H](Cc1c[nH]c2ccccc12)C(N)=O	Candida albicans	broth microdilution	SP3876, RPMI 1640-MOPS	48 h, 30 °C	16 µM
CC(C)(C)OCC1NC(=O)C(C(=O)NC(C(=O)NC2C(=O)N3C2SC(C)(C)C3C(=O)O)c2ccccc2)=C1O (centres unmarked)	Escherichia coli	broth microdilution	Keio mutant JW2142-1	–	50 µg/mL
CC[C@H](C)[C@H](NC(=O)[C@H](CCCNC(=N)N)NC(=O)[C@H](Cc1c[nH]c2ccccc12)NC(=O)[C@H](CCCNC(=N)N)NC(=O)[C@H](Cc1c[nH]c2ccccc12)NC(=O)[C@H](Cc1c[nH]c2ccccc12)NC(=O)[C@H](Cc1c[nH]c2ccccc12)NC(=O)[C@H](CCCNC(=N)N)NC(=O)[C@H](Cc1c[nH]c2ccccc12)NC(=O)[C@H](CCCNC(=N)N)NC(=O)CN)C(N)=O	Candida albicans	broth microdilution	CGMCC 2.209, RPMI 1640-MOPS	48 h, 30 °C, together with: NaCl 150 mM	32 µM
C=CCO/N=c1\cc2n(-c3ccc(Cl)cc3)c3ccccc3nc-2cc1Nc1ccc(Cl)cc1	Neisseria gonorrhoeae	bacterial growth	1130991, multidrug-resistant	24 h	> 30 µM
N=C(N)NCCC[C@H](NC(=O)[C@H](Cc1c[nH]c2ccccc12)NC(=O)[C@H](CCCNC(=N)N)NC(=O)[C@H](Cc1c[nH]c2ccccc12)NC(=O)[C@H](Cc1c[nH]c2ccccc12)NC(=O)[C@H](Cc1c[nH]c2ccccc12)NC(=O)[C@H](CCCNC(=N)N)NC(=O)[C@H](Cc1c[nH]c2ccccc12)NC(=O)[C@@H](N)CCCNC(=N)N)C(=O)N[C@@H](Cc1c[nH]c2ccccc12)C(N)=O	Candida albicans	broth microdilution	CGMCC 2.209, RPMI 1640-MOPS	48 h, 30 °C, together with: ZnCl2 8 µM	16 µM
CC[C@H](C)[C@H](NC(=O)[C@H](CC(C)C)NC(=O)[C@H](CC(C)C)NC(=O)[C@H](Cc1c[nH]cn1)NC(=O)[C@H](CCCCN)NC(=O)[C@H](Cc1c[nH]cn1)NC(=O)[C@H](CCCNC(=N)N)NC(=O)[C@@H]1CCCN1C(=O)[C@H](Cc1ccc(O)cc1)NC(=O)[C@H](CC(C)C)NC(=O)[C@H](CCC(N)=O)NC(=O)[C@@H](N)CO)C(=O)N[C@@H](CCCCN)C(=O)N[C@@H](CCCNC(=N)N)C(=O)N[C@@H](CO)C(=O)N[C@@H](CC(C)C)C(=O)N[C@@H](CCCNC(=N)N)C(=O)N[C@@H](CS)C(=O)N[C@@H](CCCNC(=N)N)C(=O)N[C@@H](CCCCN)C(=O)N[C@@H](CS)C(=O)O	Micrococcus luteus	–	NCTC 2665	–	12.5 µg/mL

For quick reference, copied from above:
Compound	organism	test	system	conditions	MIC
CC(C)/N=c1\cc2n(-c3ccc(Cl)cc3)c3ccccc3nc-2cc1Nc1ccc(Cl)cc1	Neisseria gonorrhoeae	bacterial growth	1130991, multidrug-resistant	24 h	0.94 µM
N=C(N)NCCC[C@H](NC(=O)CN)C(=O)N[C@@H](Cc1c[nH]c2ccccc12)C(=O)N[C@@H](CCCNC(=N)N)C(=O)N[C@@H](Cc1c[nH]c2ccccc12)C(=O)N[C@@H](Cc1c[nH]c2ccccc12)C(=O)N[C@@H](Cc1c[nH]c2ccccc12)C(=O)N[C@@H](CCCNC(=N)N)C(=O)N[C@@H](Cc1c[nH]c2ccccc12)C(=O)N[C@@H](CCCNC(=N)N)C(=O)N[C@@H](Cc1c[nH]c2ccccc12)C(N)=O	Candida albicans	broth microdilution	SP3876, RPMI 1640-MOPS	48 h, 30 °C	16 µM
CC(C)(C)OCC1NC(=O)C(C(=O)NC(C(=O)NC2C(=O)N3C2SC(C)(C)C3C(=O)O)c2ccccc2)=C1O (centres unmarked)	Escherichia coli	broth microdilution	Keio mutant JW2142-1	–	50 µg/mL
